Measurements from different studies.
Lines come from different studies, so protocols differ. ± gives the spread as reported.
rep main protease: Replicase polyprotein 1ab, main protease (rep, Severe acute respiratory syndrome coronavirus 2, UniProt P0DTD1)

N#Cc1ccccc1C[C@@H](N)C(=O)N[C@H](Cc1ccc(Cl)cc1Cl)C(=O)N[C@H](CC(=O)Nc1nnc(N)[nH]1)Cc1ccc(F)cc1 — IC50 (rep main protease; enzyme activity, inhibitor, fluorescence): 8 µM
O=C1CC(c2ccccc2)Oc2ccccc21 (centres unmarked) — IC50 (Replicase polyprotein 1ab, nsp13 helicase (rep, Severe acute respiratory syndrome coronavirus 2, UniProt P0DTD1); ATPase activity; no nucleic acid): > 30 µM
COc1cc(C(O)C(N)CO)ccc1O (centres unmarked) — IC50 (rep main protease; enzyme activity, inhibitor, FRET): 0.476 ± 0.02 µM
O=c1cc(-c2ccc(O)cc2)oc2c(C3OC(CO)C(O)C(O)C3O)c(O)c(C3OC(CO)C(O)C(O)C3O)c(O)c12 (centres unmarked) — IC50 (rep main protease; enzyme activity, inhibitor): 1.43 µM
CCC(C(=O)Nc1ccc(C)cc1)n1cccc2nc(SCc3ccc(F)cc3)nc1-2 (centres unmarked) — IC50 (Replicase polyprotein 1ab, papain-like protease (rep, Severe acute respiratory syndrome coronavirus 2, UniProt P0DTD1); enzyme activity, inhibitor): 19.8 µM
CC1(C)C2CCC(Cn3[se]c4ccccc4c3=O)C1C2 (centres unmarked) — IC50 (rep main protease; enzyme activity, inhibitor): 0.519 µM
O=c1c2ccccc2sn1-c1ccccc1 — IC50 (rep main protease; enzyme activity, inhibitor; 60 min preincubation): 0.25 ± 0.04 µM
CCCCCCCCCCCCCCCC(=O)N[C@@H](CCC(=O)NCCOCCOCCC(=O)NCCOCCOCCC(=O)NCCCC[C@H](NC(=O)[C@H](CC(=O)O)NC(=O)[C@H](CC(C)C)NC(=O)[C@H](Cc1ccc(O)cc1)NC(=O)[C@H](CCCCN)NC(=O)[C@H](CO)NC(=O)[C@H](Cc1ccc(O)cc1)NC(=O)[C@H](CC(=O)O)NC(=O)[C@H](CO)NC(=O)[C@@H](NC(=O)[C@H](Cc1ccccc1)NC(=O)[C@@H](NC(=O)CNC(=O)[C@H](CCC(N)=O)NC(=O)[C@@H](CO)NC(=O)[C@@H](N)Cc1c[nH]cn1)[C@@H](C)O)[C@@H](C)O)C(=O)N[C@@H](CCCNC(=N)N)C(=O)N[C@@H](CCCNC(=N)N)C(=O)N[C@@H](C)C(=O)N[C@@H](CCC(N)=O)C(=O)N[C@@H](CC(=O)O)C(=O)N[C@@H](Cc1ccccc1)C(=O)N[C@H](C(=O)N[C@@H](CCC(N)=O)C(=O)N[C@@H](Cc1c[nH]c2ccccc12)C(=O)N[C@@H](CC(C)C)C(=O)N[C@@H](CC(C)C)C(=O)N[C@@H](CC(N)=O)C(=O)N[C@H](C(=O)NCC(=O)NCC(=O)N1CCC[C@H]1C(=O)N[C@@H](CO)C(=O)N[C@@H](CO)C(=O)NCC(=O)N[C@@H](C)C(=O)N1CCC[C@H]1C(=O)N1CCC[C@H]1C(=O)N1CCC[C@H]1C(=O)N[C@@H](CO)C(N)=O)[C@@H](C)O)C(C)C)C(=O)O — Cmax (rhesus monkey, male, plasma; subcutaneous, 20 µg/kg, day 1, toxicokinetics, mean): 33.9 ng/mL
CCN(CC)S(=O)(=O)c1ccc2nnn(OCc3ccccc3)c2c1 — IC50 (rep main protease; enzyme activity, inhibitor): > 100 µM
CC1=C(c2ccccc2)C1C(=O)NCc1nc(-c2ccc([N+](=O)[O-])cc2)no1 (centres unmarked) — IC50 (rep main protease; enzyme activity, inhibitor, FRET): 19.7 µM
COC(=O)c1cc2c(=O)n3ccccc3nc2n1Cc1ccccc1 — IC50 (rep main protease; enzyme activity, inhibitor): 329 µM
CC(C)(C)c1ccc(N(C(=O)C(F)F)C(C(=O)NCCc2cccc(F)c2)c2cccnc2)cc1 (centres unmarked) — IC50 (rep main protease; enzyme activity, inhibitor): > 20 µM
O=C(OCc1ccccc1)ONC(=O)c1ccccc1 — IC50 (rep main protease; enzyme activity, inhibitor, FRET): 11.7 µM
CN(C)CCCCNC(=O)C[C@H](Cc1ccc(F)cc1)NC(=O)[C@@H](Cc1ccc(Cl)cc1Cl)NC(=O)[C@@H](N)Cc1ccccc1C#N — IC50 (rep main protease; enzyme activity, inhibitor, fluorescence): 0.8 µM
COc1cc(C(=O)O)ccc1C1=NN(c2ccc(C#N)c(Cl)c2)C(C)C1 (centres unmarked) — IC50 (Replicase polyprotein 1ab, methyltransferase (rep, Severe acute respiratory syndrome coronavirus 2, UniProt P0DTD1); enzyme activity, inhibitor): 20 µM
Cc1cncc(C(=O)N2CCN(C(c3ccccc3)c3ccccc3)CC2)c1 — IC50 (rep main protease; enzyme activity, inhibitor): 0.13 µM
CN(C)c1ccc(N(Cc2cc(Cl)cs2)C(=O)Cc2cncc3ccccc23)cc1 — IC50 (rep main protease; enzyme activity, inhibitor; Caco-2; 28 h): 0.07 ± 0.02 µM

Some of these lines once more:
O=c1cc(-c2ccc(O)cc2)oc2c(C3OC(CO)C(O)C(O)C3O)c(O)c(C3OC(CO)C(O)C(O)C3O)c(O)c12 (centres unmarked) — IC50 (rep main protease; enzyme activity, inhibitor): 1.43 µM
